Experimental data collected from several papers.
Parts stem from different laboratories: compare values within a part only. Substitutions count along the parent as printed.
Sequence of UniProt Q9UBF8 (whole entry, looked up): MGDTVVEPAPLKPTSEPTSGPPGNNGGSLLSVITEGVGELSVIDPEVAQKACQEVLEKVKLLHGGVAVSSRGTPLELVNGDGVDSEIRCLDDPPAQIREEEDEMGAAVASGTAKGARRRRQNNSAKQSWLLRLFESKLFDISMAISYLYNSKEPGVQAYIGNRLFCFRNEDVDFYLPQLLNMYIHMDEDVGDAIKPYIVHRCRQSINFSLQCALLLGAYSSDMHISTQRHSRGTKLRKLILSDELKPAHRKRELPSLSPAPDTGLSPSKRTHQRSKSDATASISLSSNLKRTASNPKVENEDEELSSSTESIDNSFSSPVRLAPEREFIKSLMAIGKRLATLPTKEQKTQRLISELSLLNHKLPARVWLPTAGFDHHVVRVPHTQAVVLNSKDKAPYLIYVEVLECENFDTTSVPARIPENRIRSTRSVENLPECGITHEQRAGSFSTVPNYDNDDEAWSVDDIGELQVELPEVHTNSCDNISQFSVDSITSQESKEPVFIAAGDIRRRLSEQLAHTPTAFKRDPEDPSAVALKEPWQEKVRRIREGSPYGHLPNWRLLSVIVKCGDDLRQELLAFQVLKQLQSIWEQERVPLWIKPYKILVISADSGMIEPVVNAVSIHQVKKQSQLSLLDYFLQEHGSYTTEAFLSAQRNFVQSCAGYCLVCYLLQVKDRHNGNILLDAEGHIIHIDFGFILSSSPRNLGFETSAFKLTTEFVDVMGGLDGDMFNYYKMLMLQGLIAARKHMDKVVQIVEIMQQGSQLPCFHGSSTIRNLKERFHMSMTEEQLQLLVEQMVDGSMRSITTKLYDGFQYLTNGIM
Sequence of UniProt P11802 (whole entry, looked up): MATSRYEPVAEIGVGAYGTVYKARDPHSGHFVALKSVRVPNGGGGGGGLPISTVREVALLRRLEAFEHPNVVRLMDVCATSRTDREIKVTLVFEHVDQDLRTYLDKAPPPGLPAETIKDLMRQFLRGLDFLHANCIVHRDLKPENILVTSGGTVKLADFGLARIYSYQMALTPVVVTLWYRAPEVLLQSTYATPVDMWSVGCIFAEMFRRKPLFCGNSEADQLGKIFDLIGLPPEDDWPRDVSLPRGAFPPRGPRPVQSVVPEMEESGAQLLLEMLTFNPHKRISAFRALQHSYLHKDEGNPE
Sequence of UniProt P00519 (whole entry, unmodified, looked up): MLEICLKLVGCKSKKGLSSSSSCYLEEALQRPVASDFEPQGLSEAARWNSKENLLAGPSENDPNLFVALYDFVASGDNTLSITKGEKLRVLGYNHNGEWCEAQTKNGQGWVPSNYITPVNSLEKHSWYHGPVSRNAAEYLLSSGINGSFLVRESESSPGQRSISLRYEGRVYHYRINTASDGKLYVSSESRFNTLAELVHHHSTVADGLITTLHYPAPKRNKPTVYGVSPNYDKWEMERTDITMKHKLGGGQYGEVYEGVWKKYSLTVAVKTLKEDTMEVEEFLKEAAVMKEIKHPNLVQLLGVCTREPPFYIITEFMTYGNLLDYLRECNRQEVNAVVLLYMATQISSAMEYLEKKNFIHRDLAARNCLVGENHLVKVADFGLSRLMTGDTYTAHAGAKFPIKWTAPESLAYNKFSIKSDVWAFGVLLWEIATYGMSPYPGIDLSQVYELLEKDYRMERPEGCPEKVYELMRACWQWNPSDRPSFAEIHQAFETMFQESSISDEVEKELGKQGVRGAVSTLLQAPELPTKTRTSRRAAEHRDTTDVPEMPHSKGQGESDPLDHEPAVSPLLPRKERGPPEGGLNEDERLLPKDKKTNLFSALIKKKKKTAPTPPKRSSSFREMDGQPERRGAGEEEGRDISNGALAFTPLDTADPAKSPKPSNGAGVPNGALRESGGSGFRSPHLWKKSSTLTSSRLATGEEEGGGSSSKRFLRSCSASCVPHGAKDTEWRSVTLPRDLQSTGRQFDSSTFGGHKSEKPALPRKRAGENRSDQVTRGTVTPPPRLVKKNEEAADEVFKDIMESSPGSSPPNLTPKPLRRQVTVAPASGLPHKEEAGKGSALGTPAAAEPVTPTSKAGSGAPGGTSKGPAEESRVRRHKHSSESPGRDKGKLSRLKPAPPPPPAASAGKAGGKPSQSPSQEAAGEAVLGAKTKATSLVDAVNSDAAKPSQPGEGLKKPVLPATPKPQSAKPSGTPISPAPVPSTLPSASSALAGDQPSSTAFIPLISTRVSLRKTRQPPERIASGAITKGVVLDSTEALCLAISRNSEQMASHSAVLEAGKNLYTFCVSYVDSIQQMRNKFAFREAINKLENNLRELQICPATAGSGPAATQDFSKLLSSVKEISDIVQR
Sequence of UniProt Q16659 (whole entry, looked up): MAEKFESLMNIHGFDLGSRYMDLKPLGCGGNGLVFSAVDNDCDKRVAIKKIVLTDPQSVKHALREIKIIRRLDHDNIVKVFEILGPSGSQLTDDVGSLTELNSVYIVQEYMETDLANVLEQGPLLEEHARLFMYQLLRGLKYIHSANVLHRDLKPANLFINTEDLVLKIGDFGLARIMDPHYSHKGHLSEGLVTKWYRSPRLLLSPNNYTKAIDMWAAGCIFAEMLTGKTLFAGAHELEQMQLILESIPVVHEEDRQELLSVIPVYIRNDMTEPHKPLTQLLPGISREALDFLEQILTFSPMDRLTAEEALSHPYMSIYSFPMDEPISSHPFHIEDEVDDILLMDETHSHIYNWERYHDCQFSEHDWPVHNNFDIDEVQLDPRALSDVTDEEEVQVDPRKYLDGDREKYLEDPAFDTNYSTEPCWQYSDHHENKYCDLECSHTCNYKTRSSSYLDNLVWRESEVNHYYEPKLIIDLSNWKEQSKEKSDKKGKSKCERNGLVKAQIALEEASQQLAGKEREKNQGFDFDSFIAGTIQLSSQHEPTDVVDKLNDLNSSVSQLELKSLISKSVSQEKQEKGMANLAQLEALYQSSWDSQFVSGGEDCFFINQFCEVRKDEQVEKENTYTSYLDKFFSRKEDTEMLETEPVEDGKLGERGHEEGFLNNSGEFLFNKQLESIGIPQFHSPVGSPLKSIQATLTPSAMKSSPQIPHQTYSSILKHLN
Sequence of UniProt P23458 (whole entry, looked up): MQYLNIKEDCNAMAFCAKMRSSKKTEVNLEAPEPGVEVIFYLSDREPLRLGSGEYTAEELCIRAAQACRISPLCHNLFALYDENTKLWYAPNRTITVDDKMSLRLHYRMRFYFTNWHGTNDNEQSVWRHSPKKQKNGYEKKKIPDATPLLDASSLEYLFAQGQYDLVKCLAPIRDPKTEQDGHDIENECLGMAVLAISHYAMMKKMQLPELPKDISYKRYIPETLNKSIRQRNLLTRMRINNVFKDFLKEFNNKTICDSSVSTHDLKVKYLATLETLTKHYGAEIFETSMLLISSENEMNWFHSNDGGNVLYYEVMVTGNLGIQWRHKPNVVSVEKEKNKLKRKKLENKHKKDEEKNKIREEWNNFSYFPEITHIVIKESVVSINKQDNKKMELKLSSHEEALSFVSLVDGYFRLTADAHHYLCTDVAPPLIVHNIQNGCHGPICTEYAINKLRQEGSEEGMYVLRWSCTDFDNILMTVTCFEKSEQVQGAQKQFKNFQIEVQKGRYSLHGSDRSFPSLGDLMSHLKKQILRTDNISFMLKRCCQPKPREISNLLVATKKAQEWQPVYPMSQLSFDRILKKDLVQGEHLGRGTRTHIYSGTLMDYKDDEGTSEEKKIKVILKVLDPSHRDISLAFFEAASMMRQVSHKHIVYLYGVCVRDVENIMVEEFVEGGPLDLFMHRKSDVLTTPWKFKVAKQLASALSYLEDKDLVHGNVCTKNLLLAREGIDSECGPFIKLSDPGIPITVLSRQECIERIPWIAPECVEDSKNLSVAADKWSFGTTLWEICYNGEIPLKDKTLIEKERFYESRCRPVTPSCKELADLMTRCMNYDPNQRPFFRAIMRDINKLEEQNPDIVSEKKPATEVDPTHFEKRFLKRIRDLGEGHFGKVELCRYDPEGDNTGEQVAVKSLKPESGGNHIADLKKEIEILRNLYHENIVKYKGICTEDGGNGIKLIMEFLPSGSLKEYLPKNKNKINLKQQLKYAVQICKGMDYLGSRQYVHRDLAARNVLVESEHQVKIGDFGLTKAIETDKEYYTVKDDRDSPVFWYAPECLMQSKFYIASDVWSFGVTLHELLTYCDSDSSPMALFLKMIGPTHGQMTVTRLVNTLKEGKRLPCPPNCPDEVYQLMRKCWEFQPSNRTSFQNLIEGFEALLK

Block 1
Target: CCND3, cyclin fold, Cln2 fusion (human)
Technique: yeast growth competition, sequencing
Medium: yeast
Notes: weak parent motif
Relative to: not given
Direction: higher = stronger binding
Measurement: normalised enrichment score
Starting sequence: MICAL3 docking peptide (human); LQLRRQLSFSEDS; partner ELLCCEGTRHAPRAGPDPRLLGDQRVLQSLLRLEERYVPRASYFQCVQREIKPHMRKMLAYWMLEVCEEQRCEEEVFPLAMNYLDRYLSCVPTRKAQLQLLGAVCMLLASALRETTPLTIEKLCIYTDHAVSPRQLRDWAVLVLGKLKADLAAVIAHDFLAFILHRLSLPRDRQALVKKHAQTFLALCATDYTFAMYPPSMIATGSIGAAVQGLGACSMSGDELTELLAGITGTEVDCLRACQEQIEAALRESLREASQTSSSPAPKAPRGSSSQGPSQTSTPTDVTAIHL
Substitution = E11T; value = 0.235
Substitution = F9E; value = -0.0464
Substitution = Q2T; value = -0.241
Substitution = L7P; value = 0.15
Substitution = L3G; value = 0.375
Substitution = L3E; value = 0.00577
Substitution = L3C; value = 0.0936
Substitution = R4N; value = -0.0846

Block 2
Compound: O=C(NC[C@@H]1[C@H]2CN(C(=O)OCc3cc(C(F)(F)F)cc(C(F)(F)F)c3)C[C@@H]12)c1ccc2[nH]nnc2c1
Concentration: 1 µM
Measurement: remaining binding
target = CDK4 (Homo sapiens, UniProt P11802); observed = cell-free assay; technique = competition with immobilised ligand; value = 95%
target = CDK9 (Homo sapiens, UniProt P50750); observed = cell-free assay; technique = competition with immobilised ligand; value = 91%
target = Tyrosine-protein kinase ABL1, phosphorylated (ABL1, Homo sapiens, UniProt P00519, F317I); observed = binding; value = 88%
target = IGF1R (Homo sapiens, UniProt P08069); observed = cell-free assay; technique = competition with immobilised ligand; value = 100%
target = Tyrosine-protein kinase JAK1, JH2 (JAK1, Homo sapiens, UniProt P23458); observed = cell-free assay; technique = competition with immobilised ligand; value = 100%
target = PNCK (Homo sapiens, UniProt Q6P2M8); observed = cell-free assay; technique = competition with immobilised ligand; value = 100%
target = MAPK6 (Homo sapiens, UniProt Q16659); observed = cell-free assay; technique = competition with immobilised ligand; value = 88%
target = SYK (Homo sapiens, UniProt P43405); observed = cell-free assay; technique = competition with immobilised ligand; value = 100%
target = PI4KB (Homo sapiens, UniProt Q9UBF8); observed = cell-free assay; technique = competition with immobilised ligand; value = 100%
target = PRKACB (Homo sapiens, UniProt P22694); observed = cell-free assay; technique = competition with immobilised ligand; value = 100%
target = CSF1R (Homo sapiens, UniProt P07333); observed = cell-free assay; technique = competition with immobilised ligand; value = 99%

Block 3
Target: Hepatocyte nuclear factor 3-beta, forkhead domain (FOXA2, Homo sapiens, UniProt Q9Y261, residues 142-269)
Technique: protein-binding microarray
Molecule type: double-stranded DNA, one strand shown
Medium: in vitro
Concentration: not given
Notes: k-mer, scored over probes, only values ≥0.25
Direction: higher = stronger binding
Measurement: E-score
Construct (chain): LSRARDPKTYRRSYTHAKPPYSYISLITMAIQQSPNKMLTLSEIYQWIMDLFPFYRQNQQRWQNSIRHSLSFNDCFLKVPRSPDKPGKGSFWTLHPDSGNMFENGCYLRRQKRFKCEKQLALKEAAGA
Strand = TACAGACA; value = 0.268
Strand = TACATATA; value = 0.48
Strand = AACGTAAA; value = 0.273
Strand = ATTGTCTA; value = 0.309
Strand = ACAAAATG; value = 0.32
Strand = ACGTGTTG; value = 0.27
Strand = AATTTATA; value = 0.366
Strand = GATATTTA; value = 0.3

Block 4
Target: Serine/threonine-protein kinase D2 (PRKD2, Homo sapiens, UniProt Q9BZL6)
Sequence of UniProt Q9BZL6 (whole entry, looked up): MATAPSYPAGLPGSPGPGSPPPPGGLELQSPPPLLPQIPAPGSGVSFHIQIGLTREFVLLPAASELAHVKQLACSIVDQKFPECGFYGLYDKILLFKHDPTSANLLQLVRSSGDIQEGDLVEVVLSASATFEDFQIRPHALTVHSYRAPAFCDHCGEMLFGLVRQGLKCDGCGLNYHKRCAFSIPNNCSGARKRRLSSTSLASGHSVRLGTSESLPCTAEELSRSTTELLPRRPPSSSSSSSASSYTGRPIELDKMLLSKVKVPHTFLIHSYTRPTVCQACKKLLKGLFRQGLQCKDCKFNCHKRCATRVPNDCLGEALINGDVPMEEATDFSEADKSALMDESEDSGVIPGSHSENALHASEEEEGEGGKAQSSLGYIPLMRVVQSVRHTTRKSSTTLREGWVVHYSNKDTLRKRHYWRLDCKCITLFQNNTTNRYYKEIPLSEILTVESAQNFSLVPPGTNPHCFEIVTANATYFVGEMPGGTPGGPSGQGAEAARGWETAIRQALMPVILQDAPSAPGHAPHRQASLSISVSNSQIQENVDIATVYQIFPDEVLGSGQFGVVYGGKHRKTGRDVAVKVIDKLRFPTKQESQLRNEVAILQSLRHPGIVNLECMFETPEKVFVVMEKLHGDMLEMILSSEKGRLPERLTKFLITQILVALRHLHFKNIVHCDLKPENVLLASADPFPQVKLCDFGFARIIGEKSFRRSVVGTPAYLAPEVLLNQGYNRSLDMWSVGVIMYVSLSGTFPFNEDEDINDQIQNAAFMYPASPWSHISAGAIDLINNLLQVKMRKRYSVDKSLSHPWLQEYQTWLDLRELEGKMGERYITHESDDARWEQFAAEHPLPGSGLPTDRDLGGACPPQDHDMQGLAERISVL
Observed: enzyme activity
Mode: inhibitor
Concentration: 0.5 µM
Relative to: control
Measurement: remaining activity
SMILES = COc1ccc(CNC(=O)Nc2ncc([N+](=O)[O-])s2)cc1; value = 97.3%
SMILES = Cc1cccc(-c2[nH]c(C(C)(C)C)nc2-c2ccc3c(c2)OCO3)n1; value = 93.6%
SMILES = CCOC(=O)c1c(C)[nH]c(/C=C2\C(=O)Nc3ccccc32)c1C; value = 97.1%
SMILES = Nc1[nH]nc2nc3ccccc3nc12; value = 94.5%
SMILES = O=C1NC(=O)C(c2cn(CCCO)c3ncccc23)=C1c1cnccn1; value = 118%
SMILES = Cn1c2ccccc2c2c3c(c4c5ccccc5n(CCC#N)c4c21)CNC3=O; value = 18.7%
SMILES = O=C1NC(=O)C(c2cn(CCCn3ccnc3)c3ccccc23)=C1Nc1ccccc1; value = 94.3%
SMILES = O=C(Nc1cccc(Nc2cc(Nc3cccc(C(F)(F)F)c3)ncn2)c1)C1CC1; value = 103%
SMILES = CC(C)[C@H](CO)Nc1nc(Nc2cc(N)cc(Cl)c2)c2ncn(C(C)C)c2n1; value = 103%
SMILES = O=c1c2ccccc2[nH]c(=S)n1CCN1CCC(=C(c2ccc(F)cc2)c2ccc(F)cc2)CC1; value = 98.9%
SMILES = CNC(=O)c1cc(Oc2ccc(NC(=O)Nc3ccc(Cl)c(C(F)(F)F)c3)cc2)ccn1; value = 96.2%
SMILES = O=C(O)c1ccc2c3c1cccc3c(=O)n1c3ccccc3nc21; value = 86.8%
SMILES = Cc1ccc(Nc2nccc(N(C)c3ccc4c(C)n(C)nc4c3)n2)cc1S(N)(=O)=O; value = 90.8%
SMILES = O=S(=O)(c1cccc2cnccc12)N1CCCNCC1; value = 85%
SMILES = N#CC(C#N)=C(N)/C(C#N)=C/c1ccc(O)cc1; value = 100%

Repeated from above (block 4):
SMILES = Cn1c2ccccc2c2c3c(c4c5ccccc5n(CCC#N)c4c21)CNC3=O; value = 18.7%
SMILES = O=C1NC(=O)C(c2cn(CCCn3ccnc3)c3ccccc23)=C1Nc1ccccc1; value = 94.3%
SMILES = O=C(Nc1cccc(Nc2cc(Nc3cccc(C(F)(F)F)c3)ncn2)c1)C1CC1; value = 103%
SMILES = CC(C)[C@H](CO)Nc1nc(Nc2cc(N)cc(Cl)c2)c2ncn(C(C)C)c2n1; value = 103%
